Experimental data of several laboratories.
A part holds a random share of what one study measured. Values joined by “and” are separate records of one study, mostly repeats; a detail may differ.
UniProt O14965, sequence (whole entry, looked up): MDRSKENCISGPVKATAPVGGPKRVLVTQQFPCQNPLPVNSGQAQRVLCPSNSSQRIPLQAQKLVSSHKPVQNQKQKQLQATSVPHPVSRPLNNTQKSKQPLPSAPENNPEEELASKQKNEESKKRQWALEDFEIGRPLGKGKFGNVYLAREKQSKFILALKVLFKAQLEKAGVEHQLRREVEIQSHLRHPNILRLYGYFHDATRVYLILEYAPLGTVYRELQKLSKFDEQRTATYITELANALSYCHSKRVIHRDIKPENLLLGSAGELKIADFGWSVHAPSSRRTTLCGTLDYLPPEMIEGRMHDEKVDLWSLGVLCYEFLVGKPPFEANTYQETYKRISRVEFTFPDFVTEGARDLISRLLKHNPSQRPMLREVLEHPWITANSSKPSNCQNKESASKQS
UniProt P50613, sequence (whole entry, looked up): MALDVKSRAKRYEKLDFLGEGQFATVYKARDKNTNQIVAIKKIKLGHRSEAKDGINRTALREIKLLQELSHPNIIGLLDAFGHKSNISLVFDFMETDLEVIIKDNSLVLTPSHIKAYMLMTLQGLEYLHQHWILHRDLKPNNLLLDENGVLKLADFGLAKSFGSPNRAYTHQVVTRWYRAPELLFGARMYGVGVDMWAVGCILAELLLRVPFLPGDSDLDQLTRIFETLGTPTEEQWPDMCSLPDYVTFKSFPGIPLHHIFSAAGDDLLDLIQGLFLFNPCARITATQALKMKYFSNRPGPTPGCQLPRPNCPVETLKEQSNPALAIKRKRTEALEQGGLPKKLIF
UniProt Q9H2G2, sequence (whole entry, looked up): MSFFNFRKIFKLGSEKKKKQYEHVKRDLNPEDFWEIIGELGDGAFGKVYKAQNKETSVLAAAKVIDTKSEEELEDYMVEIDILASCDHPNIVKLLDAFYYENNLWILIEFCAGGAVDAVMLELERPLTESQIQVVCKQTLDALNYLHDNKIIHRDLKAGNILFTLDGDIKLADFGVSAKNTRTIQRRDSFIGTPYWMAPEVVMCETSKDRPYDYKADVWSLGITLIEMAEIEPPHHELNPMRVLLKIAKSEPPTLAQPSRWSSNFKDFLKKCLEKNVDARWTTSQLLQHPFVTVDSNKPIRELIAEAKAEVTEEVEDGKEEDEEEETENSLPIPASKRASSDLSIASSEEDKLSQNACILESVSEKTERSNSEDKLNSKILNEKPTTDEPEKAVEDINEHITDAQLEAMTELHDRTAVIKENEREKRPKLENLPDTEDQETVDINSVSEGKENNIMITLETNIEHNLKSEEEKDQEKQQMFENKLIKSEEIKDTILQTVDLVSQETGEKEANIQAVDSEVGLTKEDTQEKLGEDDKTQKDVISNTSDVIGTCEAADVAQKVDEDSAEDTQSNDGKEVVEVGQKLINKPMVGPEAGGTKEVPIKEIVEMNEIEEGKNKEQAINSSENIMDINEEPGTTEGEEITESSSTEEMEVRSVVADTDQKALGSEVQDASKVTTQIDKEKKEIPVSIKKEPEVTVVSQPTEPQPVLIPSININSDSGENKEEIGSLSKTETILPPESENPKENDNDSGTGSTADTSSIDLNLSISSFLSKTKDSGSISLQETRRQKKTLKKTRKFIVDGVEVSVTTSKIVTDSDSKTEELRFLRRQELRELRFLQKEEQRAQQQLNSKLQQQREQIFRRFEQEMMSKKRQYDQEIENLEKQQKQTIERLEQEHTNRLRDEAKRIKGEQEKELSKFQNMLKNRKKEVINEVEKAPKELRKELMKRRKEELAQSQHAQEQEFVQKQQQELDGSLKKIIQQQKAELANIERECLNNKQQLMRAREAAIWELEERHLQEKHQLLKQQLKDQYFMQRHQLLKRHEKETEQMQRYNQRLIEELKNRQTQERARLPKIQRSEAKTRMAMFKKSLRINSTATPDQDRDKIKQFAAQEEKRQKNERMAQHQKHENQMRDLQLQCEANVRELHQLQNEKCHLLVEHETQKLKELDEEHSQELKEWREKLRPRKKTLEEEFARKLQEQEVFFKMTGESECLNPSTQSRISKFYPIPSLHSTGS
UniProt Q16513, sequence (whole entry, looked up): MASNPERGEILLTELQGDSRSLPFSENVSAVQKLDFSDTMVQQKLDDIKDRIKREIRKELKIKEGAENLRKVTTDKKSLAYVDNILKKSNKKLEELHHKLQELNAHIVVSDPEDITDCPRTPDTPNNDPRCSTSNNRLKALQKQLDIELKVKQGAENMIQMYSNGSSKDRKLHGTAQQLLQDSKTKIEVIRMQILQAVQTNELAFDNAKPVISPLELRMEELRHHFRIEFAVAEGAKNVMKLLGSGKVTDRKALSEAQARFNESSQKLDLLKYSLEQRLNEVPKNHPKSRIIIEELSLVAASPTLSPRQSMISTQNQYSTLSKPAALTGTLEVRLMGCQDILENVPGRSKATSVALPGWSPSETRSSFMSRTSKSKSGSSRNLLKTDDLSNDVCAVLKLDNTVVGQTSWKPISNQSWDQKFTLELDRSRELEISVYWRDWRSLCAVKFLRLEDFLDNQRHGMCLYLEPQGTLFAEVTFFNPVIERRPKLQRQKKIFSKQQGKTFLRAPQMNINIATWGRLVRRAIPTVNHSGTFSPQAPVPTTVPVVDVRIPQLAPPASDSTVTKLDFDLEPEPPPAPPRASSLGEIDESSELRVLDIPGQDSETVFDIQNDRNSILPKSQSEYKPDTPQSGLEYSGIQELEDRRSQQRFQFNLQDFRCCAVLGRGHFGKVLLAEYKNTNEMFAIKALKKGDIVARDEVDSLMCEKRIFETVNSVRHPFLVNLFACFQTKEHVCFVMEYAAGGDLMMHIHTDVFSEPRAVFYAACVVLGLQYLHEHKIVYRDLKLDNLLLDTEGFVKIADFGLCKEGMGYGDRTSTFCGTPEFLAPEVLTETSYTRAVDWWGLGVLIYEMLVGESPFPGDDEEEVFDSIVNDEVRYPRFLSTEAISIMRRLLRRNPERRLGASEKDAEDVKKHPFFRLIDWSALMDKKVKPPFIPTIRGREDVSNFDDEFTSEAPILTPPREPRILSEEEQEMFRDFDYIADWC
UniProt P34947, sequence (whole entry, looked up): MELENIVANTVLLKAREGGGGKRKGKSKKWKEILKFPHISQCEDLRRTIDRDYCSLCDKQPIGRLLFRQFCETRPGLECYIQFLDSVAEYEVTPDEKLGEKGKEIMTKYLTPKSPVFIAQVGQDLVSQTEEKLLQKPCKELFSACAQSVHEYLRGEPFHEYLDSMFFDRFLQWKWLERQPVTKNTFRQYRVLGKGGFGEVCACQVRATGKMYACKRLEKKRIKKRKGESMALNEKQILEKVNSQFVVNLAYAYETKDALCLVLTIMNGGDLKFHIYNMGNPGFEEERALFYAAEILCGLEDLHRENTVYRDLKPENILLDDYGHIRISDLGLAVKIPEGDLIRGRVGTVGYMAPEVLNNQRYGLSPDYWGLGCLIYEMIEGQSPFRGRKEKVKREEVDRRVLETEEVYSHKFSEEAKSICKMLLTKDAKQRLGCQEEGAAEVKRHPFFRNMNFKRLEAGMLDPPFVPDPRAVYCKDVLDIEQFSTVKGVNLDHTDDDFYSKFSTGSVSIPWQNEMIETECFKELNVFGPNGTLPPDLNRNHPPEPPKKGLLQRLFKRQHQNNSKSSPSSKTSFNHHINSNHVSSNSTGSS

Study 1 — host: nude mouse, HH xenograft; dose: dose not given
SMILES: CN1CC[C@H](c2c(O)cc(O)c3c(=O)cc(-c4ccccc4Cl)oc23)[C@H](O)C1
day 4 — tumour volume: 41.5 mm³ and 75.7 mm³ and 46.5 mm³ and 65.8 mm³ and 85.7 mm³ and 60.3 mm³ and 78 mm³ and 80 mm³.
It gave 46.8 mm³ and 49.4 mm³ and 225 mm³ and 74.4 mm³ and 127 mm³ and 134 mm³ and 128 mm³ and 100 mm³ for tumour volume (day 14).
day 8 — tumour volume: 219 mm³ and 103 mm³ and 56.1 mm³ and 115 mm³ and 101 mm³ and 61.9 mm³ and 110 mm³ and 154 mm³.
It gave 39.4 mm³ and 37.8 mm³ and 42.8 mm³ and 20.8 mm³ and 36.8 mm³ and 23.2 mm³ and 32.7 mm³ and 38.2 mm³ for tumour volume (day 2).

Study 2 — cell line: A-375; tested at: 100 µM; time: 60 h
`CCN1CCN(Cc2ccc(Nc3ncc(F)c(-c4cc(F)c5nc(C)n(C(C)C)c5c4)n3)nc2)CC1` gave a viability of 102%.
For `CC(c1cc2ccccc2s1)N(O)C(N)=O` (stereo not drawn), the viability was 96.4%.
`Nc1ccc2cc3ccc(N)cc3nc2c1` has a viability of 19.6%.
With `CC(=O)O[C@H]1C(=O)[C@@]2(C)[C@H]([C@H](OC(=O)c3ccccc3)[C@]3(O)C[C@H](OC(=O)[C@H](O)[C@@H](NC(=O)c4ccccc4)c4ccccc4)C(C)=C1C3(C)C)[C@]1(OC(C)=O)CO[C@@H]1C[C@@H]2O` the viability was 10.4%.

Study 3 — cell line: normal-adjacent organoid sample F; method: CellTiter-Glo; tested at: 1 µM; notes: replicate mean; relative to: DMSO
`CN1CCN(c2cnc3c(C4CCN(C(=O)c5ccc(OC(F)(F)F)cc5N)CC4)ncnc3c2)CC1` gave a viability of 101%.
`CC(C)(O)c1cncc(-c2nc3ccc(F)cc3n2C2CC2)c1` has a viability of 104%.
The viability of `CCCCN(Cc1ccccc1)C(=O)c1ccc(S(=O)(=O)Nc2ccccc2)cc1` is reported as 112%.
`C[C@H](c1ccc(F)cc1)N(Cc1cccc(C(=O)O)c1)C(=O)c1cnc2ccccc2c1` has a viability of 104%.
For `CN(C)C(=O)Cn1cc(-c2ccc(-c3cncc4ccccc34)cc2)cn1`, the viability was 111%.
`Cc1nc(C2CCN(C(=O)c3ccc(OC(F)(F)F)cc3N)CC2)c2ncc(N3CCN(C)CC3)cc2n1` gave a viability of 108%.
The viability of `CCC(=O)N[C@@H]1CC[C@H](C(=O)N(C)c2ccc(-c3nc4ccccc4o3)cc2)C1` is reported as 105%.
With `O=C(NNS(=O)(=O)c1ccccc1F)c1cc(F)cc(-c2ccccn2)c1` the viability was 70.4%.
The viability of `O=C(O)c1ccc(-c2c[nH]c3ncc(-c4ccccc4)cc23)cc1C1CCCC1` is reported as 101%.
`O=C(NNS(=O)(=O)c1ccccc1)c1cc(-c2ccnnc2)ccc1F` gave a viability of 102%.

Study 4 — Structure (SMILES): O=C1NC(=O)/C(=C/c2ccc3nccnc3c2)S1; read-out: enzyme activity; mode: inhibitor; tested at: 0.5 µM; relative to: control
It gave 81.6% for remaining activity (EGFR (Homo sapiens, UniProt P00533)).
The remaining activity was 96.5% (DYRK4 (Homo sapiens, UniProt Q9NR20)).
It gave 96.3% for remaining activity (SLK (Homo sapiens, UniProt Q9H2G2)).
For PKN2 (Homo sapiens, UniProt Q16513): remaining activity read 107%.
It gave 91.3% for remaining activity (ROCK2 (Homo sapiens, UniProt O75116)).
BRSK1 (Homo sapiens, UniProt Q8TDC3) — remaining activity: 92.4%.
For PRKD1 (Homo sapiens, UniProt Q15139): remaining activity read 94.8%.
DMPK (Homo sapiens, UniProt Q09013) — remaining activity: 112%.
NTRK3 (Homo sapiens, UniProt Q16288) — remaining activity: 95.3%.
Cyclin-dependent kinase 2, with cyclin A (CDK2, Homo sapiens, UniProt P24941) — remaining activity: 99.7%.
The remaining activity was 111% (NEK9 (Homo sapiens, UniProt Q8TD19)).
It gave 102% for remaining activity (CAMK1D (Homo sapiens, UniProt Q8IU85)).
It gave 92.3% for remaining activity (ROS1 (Homo sapiens, UniProt P08922)).
PTK2B (Homo sapiens, UniProt Q14289) — remaining activity: 106%.
It gave 97.7% for remaining activity (RET (Homo sapiens, UniProt P07949)).
It gave 99.6% for remaining activity (MAP3K8 (Homo sapiens, UniProt P41279)).
It gave 105% for remaining activity (CAMK1G (Homo sapiens, UniProt Q96NX5)).
For GRK5 (Homo sapiens, UniProt P34947): remaining activity read 105%.
For CSNK2A2 (Homo sapiens, UniProt P19784): remaining activity read 3.08%.
It gave 96% for remaining activity (MAPK10 (Homo sapiens, UniProt P53779)).
For CDK7 (Homo sapiens, UniProt P50613): remaining activity read 85.2%.
For MAP3K2 (Homo sapiens, UniProt Q9Y2U5): remaining activity read 108%.
For HIPK3 (Homo sapiens, UniProt Q9H422): remaining activity read 92.4%.
For Aurora kinase A (AURKA, Homo sapiens, UniProt O14965): remaining activity read 97.2%.

Study 5 — read-out: binding; mode: competitor; method: NanoBRET; cells: HEK293
SMILES: CN1CCC[C@H]1COc1nc2c(c(N3CCN(S(C)(=O)=O)[C@@H](CC#N)C3)n1)CCN(c1cccc3cccc(Cl)c13)C2
KRAS G13D: GTPase KRas (KRAS, Homo sapiens, UniProt P01116, G13D)
KRAS Q61H: GTPase KRas (KRAS, Homo sapiens, UniProt P01116, Q61H)
The normalized BRET was 30.6% and 43.6% and 39.2% (GTPase KRas (KRAS, Homo sapiens, UniProt P01116, G12D); 33.3 µM).
For KRAS G13D; 3.7 µM: normalized BRET read 19.2% and 17.2%.
It gave 20.4% and 26.9% and 25.2% for normalized BRET (KRAS Q61H; 3.7 µM).
KRAS G13D; 11.1 µM — normalized BRET: 10.5% and 10.6% and 7.79%.
The normalized BRET was 101% and 93.4% and 98.1% (GTPase KRas (KRAS, Homo sapiens, UniProt P01116, Q61L); 15.2 nM).
It gave 12.9% and 14.6% and 16.8% for normalized BRET (KRAS Q61H; 11.1 µM).

Repeated from above (study 4):
BRSK1 (Homo sapiens, UniProt Q8TDC3) — remaining activity: 92.4%.
For PRKD1 (Homo sapiens, UniProt Q15139): remaining activity read 94.8%.
DMPK (Homo sapiens, UniProt Q09013) — remaining activity: 112%.
NTRK3 (Homo sapiens, UniProt Q16288) — remaining activity: 95.3%.
Cyclin-dependent kinase 2, with cyclin A (CDK2, Homo sapiens, UniProt P24941) — remaining activity: 99.7%.
The remaining activity was 111% (NEK9 (Homo sapiens, UniProt Q8TD19)).
It gave 102% for remaining activity (CAMK1D (Homo sapiens, UniProt Q8IU85)).
It gave 92.3% for remaining activity (ROS1 (Homo sapiens, UniProt P08922)).
